Measured values from different studies.
Each numbered part is a random draw from the data of one study; scales do not carry over between parts.
Sequence of UniProt Q01959 (whole entry, looked up): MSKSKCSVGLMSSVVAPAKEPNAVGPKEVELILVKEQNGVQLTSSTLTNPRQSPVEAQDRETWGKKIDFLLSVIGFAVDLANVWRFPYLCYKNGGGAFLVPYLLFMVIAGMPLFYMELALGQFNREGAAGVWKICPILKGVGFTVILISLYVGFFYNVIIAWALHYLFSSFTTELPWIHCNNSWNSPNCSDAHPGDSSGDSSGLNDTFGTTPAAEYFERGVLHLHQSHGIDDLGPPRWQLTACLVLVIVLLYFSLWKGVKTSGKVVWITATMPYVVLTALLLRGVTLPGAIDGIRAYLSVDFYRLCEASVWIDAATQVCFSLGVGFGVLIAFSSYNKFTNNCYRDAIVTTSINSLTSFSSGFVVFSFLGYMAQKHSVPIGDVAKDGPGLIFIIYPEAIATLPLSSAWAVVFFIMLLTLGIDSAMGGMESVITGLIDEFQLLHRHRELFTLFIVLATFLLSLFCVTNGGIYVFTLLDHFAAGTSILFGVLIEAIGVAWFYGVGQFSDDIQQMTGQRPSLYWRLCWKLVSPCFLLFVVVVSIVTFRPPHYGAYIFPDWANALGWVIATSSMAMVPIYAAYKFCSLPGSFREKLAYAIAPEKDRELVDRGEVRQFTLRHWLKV

Series 1
Target: Mamu-B*01 macaque
Effect on: peptide-MHC binding
Molecule type: peptide
Tested at: concentration not given
| Sequence | binding |
| --- | --- |
| IDDVTIKI | inactive |
| EDVVLVRI | inactive |
| ADDIVEKL | inactive |

Single results of other studies
| Compound | tested on | assay | system | conditions | how to read | measurement | value |
| --- | --- | --- | --- | --- | --- | --- | --- |
| O=C(Nc1ccc2[nH]ncc2c1)c1cc(N2CCNCC2)c(F)cc1F | – | – | mouse, microsomes or S9 | 2 µM, 0.5 h | – | remaining compound | 28.1% |
| CN(C)CCCN1c2ccccc2Sc2ccccc21 | HEK-293T/ACE2 | – | – | 17.5 h | – | CC50 | 60.1 µM |
| C[C@@]1(Cc2ccc(C#N)cc2)C(=O)N(c2cc(Cl)cc(Cl)c2)c2ncc(C(=O)NC3(c4nc(C5CCC5)no4)CC3)n21 | Sodium-dependent dopamine transporter (SLC6A3, Homo sapiens, UniProt Q01959) | binding, radioligand binding | – | 10 µM | – | inhibition | -16% |
| [N-]=[N+]=CC(=O)CC[C@H](N)C(=O)O | – | histopathology, scale 0-6 | mouse C57BL/6 CES1-/-, GI tissue | intravenous, 1 mg/kg | direction not given | GI histopathology sum score | 6 |
| CCCNS(=O)(=O)c1ccc(OCC(=O)N2CCN(Cc3ccc4c(c3)OCO4)CC2)c(C)c1 | – | – | mouse, microsomes or S9 | 2 µM, 0.5 h | – | remaining compound | 38.4% |

Repeated from above (series 1):
| Sequence | binding |
| --- | --- |
| EDVVLVRI | inactive |
